Measurements pooled from the literature.
Values joined by “and” are separate records of one study, mostly repeats; a detail may differ. ± gives the spread as reported.

CCN1CCN(Cc2ccc(Nc3ncc(F)c(-c4cc(F)c5nc(C)n(C(C)C)c5c4)n3)nc2)CC1 — Vss/F (healthy human, fasted; oral, 150 mg, 3 x 50 mg capsules): 1740 L
Cc1nc2cccc(OCC(C)(C)C(=O)NC(C)C)c2c(N)c1C(=O)O — Cmax ratio female over male (Sprague-Dawley rat, plasma; oral, 100 mg/kg, day 1; reference: female over male): 1.82 ± 1.23
CCN(CC)CCOC(=O)c1ccc(N)cc1 — remaining compound (LC-MS; BALB/c nude mouse, plasma; 2 µM, 0.5 h): 0.2%
O=C(Nc1nc2cccc(-c3ccc(CN4CCS(=O)(=O)CC4)cc3)n2n1)C1CC1 — treatment-emergent adverse events (refers to: food allergy; human rheumatoid arthritis patients; oral, 30 mg once daily, 4 weeks, regardless of relatedness): 5.9%
C=C[C@@](C)(/C=C/c1ccc(O)cc1)CCC=C(C)C — accuracy (rat plasma; 1000 ng/mL, 2 weeks, -70 °C, post-preparative stability): 97.8%
C[Si]1(C)O[Si](C)(C)O[Si](C)(C)O[Si](C)(C)O1 — entropy of phase change (1-octanol/air; concentration not given): -0.065 kJ/(mol·K)
O=C(O)CCC(=O)O.[2H]C([2H])([2H])Oc1cc(C)c2[nH]ccc2c1CN1CC[C@@H](C2CC2)C[C@H]1c1ccc(C(=O)O)cc1 — subjects with proteinuria TEAE (multiple ascending dose; healthy Chinese subjects; 200 mg once daily): 0%
CCCCC[C@H](O)CC[C@@H]1[C@H]2Cc3cccc(OCC(=O)O)c3C[C@H]2C[C@H]1O — geometric mean Cmax (LC-MS/MS; Japanese PAH patients ≥56.7 kg, plasma; inhaled, 54 µg): 0.7 ng/mL
COc1ccc2nc([S@@+]([O-])Cc3ncc(C)c(OC)c3C)[nH]c2c1 — AUC fold decrease (human male, dried plasma spots; dose not given, mean of (R)- and (S)-enantiomers, added: rifampicin pretreatment; reference: control over induction): 10.7 fold
CCO[C@H]1CCN(Cc2c(OC)cc(C)c3[nH]ccc23)[C@H](c2ccc(C(=O)O)cc2)C1 — unbound AUClast (human mild hepatic impairment, plasma; oral, 200 mg single dose, median): 5780 ng·h/mL
COC(=O)C1=CO[C@@H](O[C@@H]2O[C@H](CO)[C@@H](O)[C@H](O)[C@H]2O)[C@@H]2C(CO)=CC[C@H]12 — accuracy (post-procedure stability; rat plasma; 1000 ng/mL, 1 h, room temperature): 97.3%
Cc1nc(-c2ccc(OCC(C)C)c(C#N)c2)sc1C(=O)O — body weight (KM mouse, chronic hyperuricaemia model; dose not given, day 17): 40.1 g and 37 g and 36.4 g and 33.7 g and 31.6 g and 32.1 g
CC(C)[C@H](C(=O)Nc1ccc(C(=O)NO)cc1)c1ccccc1 — accuracy (whole blood; 10.0 ng/mL, 5 h, 4 °C, stability on ice): 109%
CN[C@@H]1COc2c(S(=O)(=O)NC(=O)Nc3c4c(cc5c3CCC5)CCC4)cnn2C1 — renal clearance (human, urine; oral, 150 mg, 0-48 h): 7.32 mL/min
CN(C(=O)n1cnc(-c2cccnc2)c1)[C@H]1CC[C@H](O)CC1 — tissue concentration (rat, cortex; oral, 10 mg/kg daily for 5 days, 48 h): 14.3 ± 0.7 ng/g
C[C@@H]1COCCN1c1cc(C2([S@](C)(=N)=O)CC2)nc(-c2cc[nH]c3nccc2-3)n1 — Pruritus incidence (Japanese advanced solid tumour patients; oral, 240 mg twice daily, any grade): 16.7%
C[C@@H](N)C1CCN(S(=O)(=O)c2cccc3cnccc23)CC1 — participants with epistaxis (healthy volunteers; 150 mg, fasted): 0%
CO[C@H]1C[C@@H]2CC[C@@H](C)[C@@](O)(O2)C(=O)C(=O)N2CCCC[C@H]2C(=O)O[C@H]([C@H](C)C[C@@H]2CC[C@@H](OC(=O)NCCOCCOCCOCCOCCOCCOCCOCCOCCC(=O)N3CCc4cc(Cn5nc(-c6ccc7oc(N)nc7c6)c6c(N)ncnc65)ccc4C3)[C@H](OC)C2)C[C@@H](O)[C@H](C)/C=C(\C)[C@@H](O)[C@@H](OC)C(=O)[C@H](C)C[C@H](C)/C=C/C=C/C=C/1C — AUClast (human patients, plasma; intravenous, 10 mg, cycle 1 day 15, weekly dosing, 1 h infusion, arithmetic mean): 695 ng·h/mL
COc1ncc(-c2nc3c(n2C(C)C)[C@H](c2ccc(Cl)cc2)N(c2cc(Cl)cn(C)c2=O)C3=O)c(OC)n1 — AUC(0-t) geometric mean (human patients, plasma; oral, 25 mg, 0-24 h, high-dose arm, cycle 2 day 1): 1880 ng·h/mL
c1ccc2c(c1)ccc1ccccc12 — literature range factor (PDMS-water partitioning; PAH compilation; reference: maximum over minimum K): 6
CC(C)(C(=O)N1CCOc2c(C#N)cncc2C1)C(F)F — subjects with headache TEAE (human, both sexes; oral, 10 mg single dose): 0%
CCN1/C(=C/C(C)=O)Sc2ccc(F)cc21 — diastolic blood pressure (cynomolgus monkey; oral, 30 mg/kg, 4 h post-dose): 75 ± 3 mmHg
O=C(c1nc2n(n1)[C@H](c1ccccc1)C[C@@H]2F)C1CC1 — renal clearance (human; 25 mg single dose, mean): 0.185 mL/min
c1ccc2cc3c(ccc4ccccc43)cc2c1 — literature range of log K (polyethylene-water partitioning; PAH compilation): 5.43 to 6.22 log units
COc1cc(C(=O)NC2CCN(C)CC2)c(F)cc1Nc1ncc(C(F)(F)F)c(Oc2cccc3c2C(=O)N(C)C3)n1 — renal clearance (0-24 h) (human patients, urine and plasma; oral, 10 mg single dose, geometric mean): 17.5 mL/min
Cc1ccc(Sc2ccccc2N2CCNCC2)c(C)c1 — participants with TEAE (refers to: Pollakiuria; healthy adult men; oral, 5 mg daily, 12 days): 0%
N#Cc1ccc2c(c1)[C@H]1CCCN(C(=O)c3ccc4[nH]cnc4c3)[C@H]1C2 — total testosterone level (human males; 10 mg, end of trial): 13.6 nmol/L
O=C(N/N=C/c1ccccc1O)c1ccncc1 — stability (rat plasma; 23 µM, 7 days, -80 °C, long-term storage): 96.9%
O=C(O)C1=CO[C@@H](O[C@@H]2O[C@H](CO)[C@@H](O)[C@H](O)[C@H]2O)[C@@H]2C(CO)=CC[C@H]12 — accuracy (post-procedure stability; rat plasma; 200 ng/mL, 3 h, room temperature): 115%
CC[C@H](C)[C@H](NC(=O)CN)C(=O)N[C@@H](C)C(=O)N[C@@H](CCCCN)C(=O)N[C@@H](C)C(=O)N[C@H](C(=O)N[C@@H](CCCCN)C(=O)N[C@@H](CCCCN)C(=O)N[C@H](C(=O)N[C@@H](C)C(=O)N[C@@H](CCCCN)C(=O)N[C@@H](C)C(=O)N[C@@H](CC(C)C)C(=O)NCC(N)=O)[C@@H](C)CC)[C@@H](C)CC — helix content (circular dichroism; 10 mM SDS; 100 µM): 18%
CN(C)C(=O)c1cc2cnc(Nc3ccc(N4CCNCC4)cn3)nc2n1C1CCCC1 — renal clearance (human, end-stage renal disease, plasma and urine; oral, 400 mg, single dose, geometric mean): 10.6 mL/min
NC1(C(=O)N[C@@H](CCO)c2ccc(Cl)cc2)CCN(c2nc[nH]c3nccc2-3)CC1 — incidence of Amnesia (metastatic CRPC patients; 400 mg b.i.d., any grade, treatment-related, added: enzalutamide 160 mg daily): 14.3%
C[C@H]1Oc2cc(cnc2N)-c2c(nn(C)c2C#N)CN(C)C(=O)c2ccc(F)cc21 — free plasma concentration (mouse BALB/c nude female; 5 mg/kg twice daily for 5 days, 12 h): 134 nM
CNC(=O)c1cc(Oc2ccc(NC(=O)Nc3ccc(Cl)c(C(F)(F)F)c3)c(F)c2)cc[n+]1[O-] — autosampler stability (reconstituted solution; up to 24 h, 4 °C; reference: initial concentration): < 15%
COc1ccc2c(=O)n(C)c(-c3ccccc3)nc2c1 — tissue concentration (male Sprague-Dawley rat, bladder; oral, 30 mg/kg, 0.25 h): 71.5 ng/g
COCc1cc(C(=O)Nc2cc([C@H]3CC[C@@H](OC(=O)NC(C)C)C3)[nH]n2)n(C)n1 — AUC(0-24h) (OVCAR-3 xenograft, NOD/SCID gamma mice, plasma; oral, 125 twice daily, PK/PD study): 17.6 µM·h
Cc1ccc(C)c(OCCCC(C)(C)C(=O)O)c1 — trough plasma concentration (human, plasma; oral, dose not given, day 15 predose, median): 1690 ng/mL
Cc1cc(NC2CCN(C(=O)OC3CCN(C(=O)/C=C/CN(C)C)C3)CC2)n2ncc(C(C)C)c2n1 (centres unmarked) — patients with TEAE (CTCAE v4.0, refers to: Ascites; patients with advanced solid tumours; oral, dose not given, all schedules, grade 3 or higher): 2%
CNC(=O)c1ccc(-c2cnc3ncc(Cc4ccc5ncccc5c4)n3n2)cc1F — patients with adverse event (refers to: Asthenia, all grades; cancer patients; oral, 600 mg twice daily, other expansion cohort, any causality): 11%
O=C(Cc1ccc2ccccc2c1)Nc1cc(C2CCC2)[nH]n1 — accuracy (extracted mouse plasma; 375 ng/mL, 24 h, 4 °C, autosampler stability): 102%
O=C(c1cccnc1-c1ccncc1)N1CCC(O)(Cc2ccccc2)CC1 — Cmax/dose (healthy Japanese adults, plasma; oral, 1200 mg single dose): 8.46 ng/mL/mg
C=CCN1CC(=O)N2[C@@H](Cc3ccc(O)cc3F)C(=O)N(Cc3cccc(N4CC(N5CCN(CC)CC5)C4)n3)C[C@@H]2N1C(=O)NCc1ccccc1 — treatment-related vomiting (advanced solid tumour patients; oral, 30 mg twice daily, grade ≥3, dose-escalation): 0%
FC(F)(F)c1ccc(CNc2ccc(Cc3c[nH]c4ncc(Cl)cc34)cn2)cn1 — cognitive disorder incidence (patients with advanced solid tumours; oral, 1000 mg/day, non-TGCT cohort, all grades): 0%
C[C@@H](c1ncncc1F)[C@](O)(Cn1cncn1)c1ccc(F)cc1F — drug-related TEAE incidence (refers to: decreased appetite; human; oral, 200 mg): 0%
Cc1c(-c2ccc(N3CCc4cccc(C(=O)Nc5nc6ccccc6s5)c4C3)nc2C(=O)O)cnn1CC12CC3(C)CC(C)(C1)CC(OCCNCC[C@H](O)CO)(C3)C2 — cardiac output change (anaesthetised male beagle dogs; intravenous infusion, 0.3 mg/kg/min, 30 min; reference: vehicle): -20%
CC(C)n1c(C2CCNCC2)nc2c([N+](=O)[O-])c(Br)c(Br)cc21 — renal clearance median (human, urine; oral, 150 mg single dose): 9.5 mL/min
COc1cccc(OC)c1-c1cc(C(=O)NC2(C(=O)O)C3CC4CC(C3)CC2C4)nn1-c1ccc(C(=O)N(C)CCCN(C)CCCN(C)C(=O)CN2CCN(CC(=O)[O-])CCN(CC(=O)[O-])CCN(CC(=O)[O-])CC2)cc1C(C)C.[177Lu+3] (centres unmarked) — tissue uptake (mouse, HT-29 xenograft, spleen; 4 h post injection): 2.8 %ID/g
CC(C)(Sc1ccncc1-c1ccc(C#N)c2ccccc12)C(=O)O — amount excreted in urine (0-24 h) (human, urine; oral, 15 mg, added: febuxostat 0 mg): 269 µg
CCc1cc(C(=O)NC)c2nccc(N3CCc4c(cc(Cn5ccnc5)cc4-c4cn(C)nc4C(F)(F)F)C3=O)c2c1 — gastrocnemius weight change (Sprague Dawley rats; oral, 100 mg/kg twice daily, 7 days; reference: vehicle): -5.36%
Cl.[2H]C([2H])([2H])CC(=O)c1cnc(NC(=O)C2CC2)cc1Nc1cccc(-c2ncn(C([2H])([2H])[2H])n2)c1OC — Vss/F (human, fasted, multiple dose; oral, 20 mg twice daily, tablet, day 14, geometric mean): 144 L
O=C(N[C@H](Cc1c[nH]c2ccccc12)C(=O)Nc1ccncc1)c1ccc(-c2cc(C(F)(F)F)ccc2F)cc1F — concentration (Swiss Webster mouse, female, brain; oral, 50 mg/kg, 2 h, 20% Kolliphor vehicle): 2670 nM
CNCCOC12CC3(C)CC(C)(CC(Cn4ncc(-c5ccc(N6CCc7cccc(C(=O)Nc8nc9ccccc9s8)c7C6)nc5C(=O)O)c4C)(C3)C1)C2 — systemic vascular resistance change (anaesthetised male beagle dogs; intravenous bolus, 0.03 mg/kg, 15 min; reference: baseline): -9%
Cc1cc(-c2nccc3c2ccn3CC(=O)Nc2ccc(-c3cnccn3)cn2)ccn1 — subjects with cardiac disorders (human; 20 mg once daily, multiple ascending dose): 0%

Some of these lines once more:
CNCCOC12CC3(C)CC(C)(CC(Cn4ncc(-c5ccc(N6CCc7cccc(C(=O)Nc8nc9ccccc9s8)c7C6)nc5C(=O)O)c4C)(C3)C1)C2 — systemic vascular resistance change (anaesthetised male beagle dogs; intravenous bolus, 0.03 mg/kg, 15 min; reference: baseline): -9%
c1ccc2c(c1)ccc1ccccc12 — literature range factor (PDMS-water partitioning; PAH compilation; reference: maximum over minimum K): 6
Cc1cc(-c2nccc3c2ccn3CC(=O)Nc2ccc(-c3cnccn3)cn2)ccn1 — subjects with cardiac disorders (human; 20 mg once daily, multiple ascending dose): 0%
COc1cccc(OC)c1-c1cc(C(=O)NC2(C(=O)O)C3CC4CC(C3)CC2C4)nn1-c1ccc(C(=O)N(C)CCCN(C)CCCN(C)C(=O)CN2CCN(CC(=O)[O-])CCN(CC(=O)[O-])CCN(CC(=O)[O-])CC2)cc1C(C)C.[177Lu+3] (centres unmarked) — tissue uptake (mouse, HT-29 xenograft, spleen; 4 h post injection): 2.8 %ID/g
NC1(C(=O)N[C@@H](CCO)c2ccc(Cl)cc2)CCN(c2nc[nH]c3nccc2-3)CC1 — incidence of Amnesia (metastatic CRPC patients; 400 mg b.i.d., any grade, treatment-related, added: enzalutamide 160 mg daily): 14.3%
